Measurements of several laboratories.
± gives the spread as reported.
Organism: Salmonella typhimurium

For `Fc1ccc(C2=CCNCC2)cc1`, the induction factor was 0.9 (genotoxicity, SOS/umu test; TA1535/pSK1002; 0.063 mg/mL, 4 h, with S9, full range).
For `CC(=O)N1CCC(C(=O)N2CCN3C(=O)c4cc(-c5ccccc5)ccc4NC(=O)C3C2)CC1` (stereo not drawn), “revertants per plate” read 25.5 (TA98; 158 µg/plate).
With `O=[N+]([O-])c1ccc(N2CCN(CCC(O)c3ccc(F)cc3)CC2)c(C(F)(F)F)c1` (stereo not drawn) the induction factor was 1.3 (genotoxicity, SOS/umu test; TA1535/pSK1002; 0.008 mg/mL, 4 h, without S9, full range).
`COCCN(CCOC)N=O`: “revertant colonies per plate” 23 ± 4 (mutagenicity, Ames plate incorporation; TA1535; 2500 µg/plate, 3 d, without S9, methanol).
With `OC(CCN1CC=C(c2ccc(F)cc2)CC1)c1ccc(F)c2ccccc12` (stereo not drawn) the survival was 84.3% (SOS/umu test; TA1535/pSK1002; 0.063 mg/mL, 4 h, with S9, lower range).
`CNC(=O)c1c(N(C)N=O)ncn1C` — result for “revertant colonies per plate”: 157 ± 14 (mutagenicity, Ames plate incorporation; TA100; 50 µg/plate, without S9, methanol).
The revertant ratio of `Cc1cc(C(=O)NC(C)(C)COc2cccc3c2C(N)=NS(=O)(=O)N3)cc(C)n1` is reported as 1 (Ames test, confirmatory; TA98; 1000 µg/plate, together with: rat liver S9; baseline: solvent control).
`CC(C)N(C)N=O` — result for “revertant colonies per plate”: 22.7 ± 2 (mutagenicity, Ames plate incorporation; TA98; 2500 µg/plate, 3 d, without S9, methanol).
`COc1cccc(-c2n[nH]c(SCc3ccccn3)n2)c1OC`: “revertant colonies per plate” 5 (Ames test, preincubation; TA1535; 2.0 mg/plate, without S9).

Some of these lines once more:
The revertant ratio of `Cc1cc(C(=O)NC(C)(C)COc2cccc3c2C(N)=NS(=O)(=O)N3)cc(C)n1` is reported as 1 (Ames test, confirmatory; TA98; 1000 µg/plate, together with: rat liver S9; baseline: solvent control).
